Measured values collected from several papers.
± gives the spread as reported.

| SMILES | test | system | conditions | how to read | measurement | result |
| --- | --- | --- | --- | --- | --- | --- |
| C#Cc1cccc(Nc2ncnc3cc(OC)c(OCCCN4CCOCC4)cc23)c1 | – | nude mouse, A-431 xenograft | oral gavage, 40 mg/kg/day | – | tumour burden | inhibited |
| Clc1ccc(NN=C(c2ccccc2)c2ccccn2)nc1 | – | nude mouse, A549 xenograft | oral gavage, 55 mg/kg | relative to: vehicle | tumour weight | decreased |
| C[C@H](NC(=O)CNC(=O)[C@H](CCC(=O)O)NC(=O)[C@H](CCC(=O)O)NC(=O)[C@H](CC(=O)O)NC(=O)[C@@H]1CCCN1C(=O)[C@H](Cc1ccccc1)NC(=O)[C@H](CS)NC(=O)[C@H](Cc1ccc(O)cc1)NC(=O)CCCNC(=O)CNC(=O)CNC(=O)[C@@H](C)NC(=O)CN)C(=O)N[C@@H](CS)C(=O)N[C@@H](Cc1ccc(O)cc1)C(N)=O [technetium-99m labelled] | SPECT | BALB/c nude mouse, SKBR3 tumour | intravenous, 37 MBq, 240 min | – | tumour to non-tumour ratio | 3.49 |
| NC(=O)c1cccnc1.O.O=c1[nH]cc(F)c(=O)[nH]1.O=c1[nH]cc(F)c(=O)[nH]1.O=c1[nH]cc(F)c(=O)[nH]1 | – | nude mouse HCT-116 xenograft | 0.006 mmol/kg/day, 21 days | – | tumour weight | 0.62 ± 0.15 g |
| COc1cccc2c1C(=O)c1c(O)c3c(c(O)c1C2=O)CC(O)(C(=O)CO)CC3OC1CC(NC(=O)C[C@H](N)C(=O)O)C(O)C(C)O1 (some centres unmarked) | – | mouse, HepG2 xenograft | intravenous, 5 mg/kg twice weekly, 21 days | – | tumour volume | 710 ± 105 mm³ |
| CC(=O)Nc1ccc(OC(=O)CCC(=O)[O][Pt-2]23([O]C(=O)CCC(=O)Oc4ccc(NC(C)=O)cc4)([NH2+][C@@H]4CCCC[C@H]4[NH2+]2)[O]C(=O)C(=O)[O]3)cc1 | – | BALB/c mouse, 4T1 tumour | intravenous, dose not given, 27 days, every two days | relative to: PBS | tumour volume reduction | 74.2% |
| CC(=O)[CH](C(C)=O)[Pt-2]1([S+](C)C)[O]C(C)=CC(C)=[O+]1 (centres unmarked) | – | MCF7, BALB/c nude mouse xenograft | dose not given | – | tumour mass reduction | ≤ 50% |
| CCCCCCCCCCCCCC(=O)N1CCC[C@H]1C(=O)N[C@@H](CO)C(=O)N[C@@H](CCC(N)=O)C(=O)N[C@@H](CO)C(=O)N[C@@H](CCCCNC(=O)c1ccc(Br)cc1)C(=O)N[C@@H](CO)C(=O)N[C@@H](CCCCNC(=O)c1ccc(Br)cc1)C(=O)N[C@@H](C)C(=O)O | – | female SCID mouse, AsPC-1 GFP/luciferase xenograft | intratumoral, dose not given, alternate days for one month | relative to: DMSO-PBS vehicle | tumour regression | 4.8 fold |
| C#CCCCC(O)/C=C/C(=O)NC1(c2ccc(-c3nc4ccn5c(=O)[nH]nc5c4cc3-c3ccccc3)cc2)CCC1 (centres unmarked) | – | mouse, MDA-MB-468 xenograft | oral, 200 mg/kg twice weekly | – | tumour growth slope | 0.0438 ± 0.0022 |
| C[C@@H](O)[C@H](NC(=O)[C@@H]1CSSC[C@H](NC(=O)[C@@H](Cc2ccccc2)NC(=O)CCC(C(=O)O)N2CCN(CC(=O)O)CCN(CC(=O)O)CC2)C(=O)N[C@@H](Cc2ccc(O)cc2)C(=O)N[C@H](Cc2c[nH]c3ccccc23)C(=O)N[C@@H](CCCCN)C(=O)N[C@@H]([C@@H](C)O)C(=O)N1)C(=O)O (some centres unmarked) [copper-64 labelled] | – | HCT116-SSTR2, NCr nude mouse female xenograft | dose not given, 4 h, 64Cu-labelled, with: Y3-TATE 50 µg, 30 min prior | – | tumour uptake decrease | 90% |
| C=CC(=O)N1C[C@H](C)N(c2nc(OC[C@@]34CCCN3C[C@H](F)C4)nc3c(F)c(-c4ccc(F)c5sc(N)c(C#N)c45)c(C(F)(F)F)cc23)C[C@H]1C | – | NCI-H358 xenograft, mouse | oral, 3 mg/kg once daily, 28 days | – | tumour regression | 19% |

For quick reference, copied from above:
| SMILES | test | system | conditions | how to read | measurement | result |
| --- | --- | --- | --- | --- | --- | --- |
| C#Cc1cccc(Nc2ncnc3cc(OC)c(OCCCN4CCOCC4)cc23)c1 | – | nude mouse, A-431 xenograft | oral gavage, 40 mg/kg/day | – | tumour burden | inhibited |
